Measured values of several laboratories.
A part holds a random share of what one study measured.

Sample 1 — technique: RNA Bind-n-Seq; molecule type: RNA; medium: in vitro; tested at: 365 nM; baseline: no-protein control; reading: higher = stronger binding
Target: RNA binding protein fox-1 homolog 2, RRM domain, GST-SBP tag (RBFOX2, Homo sapiens, UniProt O43251-10, residues 100-194)
Notes: natural RNA segment, single round, ends assumed
Target sequence (chain): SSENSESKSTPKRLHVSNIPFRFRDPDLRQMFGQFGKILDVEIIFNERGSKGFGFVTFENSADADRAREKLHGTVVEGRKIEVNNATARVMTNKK
For `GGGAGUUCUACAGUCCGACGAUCCCCAAAAAGCUCCUAUUAAUUUGCUUAUCCCCCUCAUGUAGCUAGUUGAAUGUGAAUAAAUAACAUGAAAAAAAGGCCACUUUUGUCUUUGUUUUUCCAGGUUAAUGGGAUGGAAUUCUCGGGUGCCAA`, “RBNS enrichment (R)” read 1.05.
`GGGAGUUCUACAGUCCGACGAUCCGUUCCCAAGGGAGGGGCCUCUGAGGUCCUUCUGCCUUGUUGAUGAAGAGUGGUUGGUUGUAGAGCCCCCACCUUCAGAACUGCCUGGCCCAGCUGGAAACCCAGAGUCUUGGAAUUCUCGGGUGCCAA` — result for “RBNS enrichment (R)”: 0.282.
`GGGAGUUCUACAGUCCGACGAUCUUGCAAAGGCACAAUAAAAUUGCAUCUUCUAGAUUAUAGGCAAUAAAGAUAACAAUAAACCUUAUUUAACAAAUCAGACUGAUACUCUCUGCUUAUUUGAUUUGGUGGGGUGGAAUUCUCGGGUGCCAA` — result for “RBNS enrichment (R)”: 0.524.
Under “RBNS enrichment (R)”, `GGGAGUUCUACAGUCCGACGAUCACGUAGAGUGCCUGGCACUGGCAAGGACUCAGUGGUCCACUAUUGUGACAGUAAUGGUUAUUACAAUAAAAAUAAUAAAAUCACCAUCAUUCUAUUUUUAACCAAAAGUAUGGAAUUCUCGGGUGCCAA` is recorded as 0.41.
`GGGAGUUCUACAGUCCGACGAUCCAUGCCAGAAGGCCAAAGGACAGCGUGGUGCACACCUUCACACCAAGGACAACUUCAGGAGGGUGCAGUGAGGGCAGCCGUGUGGAGUCUUGCUUUGCAUUUGAUAGUGUUGGAAUUCUCGGGUGCCAA` — result for “RBNS enrichment (R)”: 0.898.
`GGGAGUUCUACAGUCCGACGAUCAAGUGUUCAUUCUGCAUAGGUGUGAGGCUUUAUCUGCACACAGGACAUGAAAACCAGCAGAAAGGCCCUGAGCUGCUGCAUAGCCCCAUCUGAUUUCUGCAGUUCCCGCCUGGAAUUCUCGGGUGCCAA` — result for “RBNS enrichment (R)”: 0.562.
`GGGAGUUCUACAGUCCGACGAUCCCUGCACACGUACAGGUCAACAGCCUUCUCCCUCCUAAGAUGGACUUAAUUCAGACAGCCACUGCUUUCAGCCCCGAUUUUGGCCAGAAAGAAAAAAUACUUAUUUUUACUGGAAUUCUCGGGUGCCAA` — result for “RBNS enrichment (R)”: 0.553.
`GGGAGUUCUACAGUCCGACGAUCCAGGUAUAAAACAGUUGUUUUCUAAAAACAUGCAUUUAGUAUGGCAUUCUCUUUUAGCAACUGAAUUCCCAACGAGUUUUAUUAAGCUGGAUAUCGAAAUGAAGGAGCUGUGGAAUUCUCGGGUGCCAA`: “RBNS enrichment (R)” 0.416.
`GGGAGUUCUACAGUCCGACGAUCUGCGCCCCUUCUGAGUAGUCUUUGACAAUGUGUUGUGUUCCCCGAUGUCGACUUGAUUUCCUUUUAGUAGCAUCUCUCUCUUCCAUGUCUUGAUGUUAUGCAGGAAGUACUGGAAUUCUCGGGUGCCAA` — result for “RBNS enrichment (R)”: 1.03.
For `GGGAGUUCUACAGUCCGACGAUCAGCUGAUGUGAUAGUCAGCUUCUCUGGAGUCAACAGGGUGAAUCCUUCCCAAGUCCAGCCAUGCCCAGAUGCCCGGAGGGAAAACUGACCCCCAGCCAGUAGACAUUGGCUGGAAUUCUCGGGUGCCAA`, “RBNS enrichment (R)” read 0.306.
For `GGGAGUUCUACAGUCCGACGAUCAAGAGAACUGAGACUAAUGUAUUUUCCAAAAUUUCCUAAGGCUUUCCCCCGUUGUUUACAUGUUGAAAAGGAAAAUCACAAUCACUUGUAAAUGUGCCAUGCUCUGGUGGUGGAAUUCUCGGGUGCCAA`, “RBNS enrichment (R)” read 0.629.
`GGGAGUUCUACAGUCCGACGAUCGAGUCUAAUGUAAUUUUGAUCAACUUGGUAAUGAUGUUAUUAAAUAGCAAAACAAGUGCAGUGUAUUAAAGCUAAACACUACAUUGAAACGCAAACAAAAUUCUGGUGAAUGGAAUUCUCGGGUGCCAA`: “RBNS enrichment (R)” 0.429.

Sample 2 — technique: protein-binding microarray; molecule type: double-stranded DNA, one strand shown; medium: in vitro; tested at: not given; reading: higher = stronger binding
Target: Protein max, full length (MAX, Homo sapiens, UniProt P61244-2, residues 1-151)
Notes: k-mer, scored over probes, only values ≥0.25
`AGTCCACG` gave an E-score of 0.348.
With `ACATGACA` the E-score was 0.355.
With `GACGTGGC` the E-score was 0.265.
For `CATGACAA`, the E-score was 0.267.
For `ACACGCGT`, the E-score was 0.458.
With `CACCCGTG` the E-score was 0.289.
`ACGCGGTC` gave an E-score of 0.37.
For `ACGAGGTC`, the E-score was 0.306.
`ACGCGTGA` has an E-score of 0.441.
`CATGGGGC` gave an E-score of 0.369.
`CCATATGG` has an E-score of 0.378.
With `TCGTGCAA` the E-score was 0.299.
`CGCGTGGC` has an E-score of 0.468.
For `AATCATGC`, the E-score was 0.389.
For `CGCACCAC`, the E-score was 0.325.
For `CGCCATGA`, the E-score was 0.263.
The E-score of `GTGTTGCA` is reported as 0.31.
The E-score of `AATCACGG` is reported as 0.263.
The E-score of `AGCCATGC` is reported as 0.397.
`CACGGGAG` has an E-score of 0.29.
The E-score of `ACGCGCCG` is reported as 0.262.
With `CATGTGAC` the E-score was 0.486.
`ACACATTG` gave an E-score of 0.334.
`CGGTCACG` has an E-score of 0.343.

Sample 3 — technique: protein binding microarray; molecule type: double-stranded DNA, one strand shown; medium: in vitro; tested at: not given; baseline: not given; reading: higher = stronger binding
Target: Histone acetyltransferase KAT6A, winged helix 2, GST fusion (KAT6A, Homo sapiens, UniProt Q92794, residues 85-181)
Notes: 8-mer, flanks averaged, mean of 2 arrays, mostly near background
Target sequence (chain): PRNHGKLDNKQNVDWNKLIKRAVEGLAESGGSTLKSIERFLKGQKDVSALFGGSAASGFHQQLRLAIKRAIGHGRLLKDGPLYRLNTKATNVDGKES
For `ATTAGGCG`, the E-score was 0.149.
For `AGAATGCT`, the E-score was -0.0363.
With `CGCACGAC` the E-score was 0.0352.
For `CCGTACAG`, the E-score was -0.168.
`GTATACGA` gave an E-score of 0.00267.
With `ACCCGATA` the E-score was -0.153.
The E-score of `CGTCTCAG` is reported as 0.0279.
With `ACCAAGAT` the E-score was -0.0615.
`GCAACCAA` gave an E-score of 0.127.
The E-score of `GTCCATCA` is reported as -0.0191.
The E-score of `CTGTCGGC` is reported as 0.136.
With `AGCGTTGC` the E-score was 0.061.
`CGCGATGC` gave an E-score of 0.148.
With `AGGTATGA` the E-score was 0.0881.
The E-score of `ACAAGTGA` is reported as -0.139.
`GAGTACGA` has an E-score of -0.061.
The E-score of `GATAGCCC` is reported as -0.0119.
With `ATTTTCGG` the E-score was 0.0228.
For `CTAGGCCC`, the E-score was -0.123.
With `CCGCTAAG` the E-score was 0.0832.
For `AATTGCAG`, the E-score was 0.0473.
`ATCCGGTG` has an E-score of 0.199.
`GATCGATC` gave an E-score of -0.148.
`AGTCGTGA` has an E-score of -0.0978.
`CGTATCAC` gave an E-score of 0.00364.

Sample 4 — technique: universal PBM; molecule type: double-stranded DNA, one strand shown; medium: in vitro; tested at: not given; reading: higher = stronger binding
Target: Sal-like protein 4, full length isoform B (SALL4, Homo sapiens, UniProt Q9UJQ4-2, residues 1-616)
Notes: 8-mer, flanks averaged, mean of replicates
For `GCCCGCCC`, the E-score was -0.38.
With `CTTTCACC` the E-score was 0.00599.
With `GGCCATAA` the E-score was 0.0833.
With `CAAGGGGG` the E-score was -0.222.
The E-score of `AGAAGTCT` is reported as 0.0223.
The E-score of `TCCGTTCA` is reported as -0.119.
With `CGATCCAG` the E-score was -0.315.
For `CCCAAACA`, the E-score was 0.00837.
The E-score of `GCCCGACA` is reported as -0.179.
The E-score of `AGGTTGTC` is reported as -0.0793.
`ACCTCACC` gave an E-score of -0.136.
The E-score of `GTGACGAA` is reported as -0.11.
The E-score of `CCTTGCAG` is reported as -0.294.
`GAGGGGGC` gave an E-score of -0.286.
`TCTCAGAA` has an E-score of 0.117.
For `CAATACAA`, the E-score was 0.213.
`GCGAGTCA` has an E-score of -0.195.
For `GATATGCA`, the E-score was 0.21.
The E-score of `CAATCGAG` is reported as -0.267.
`AGGCGTAC` has an E-score of -0.0458.
The E-score of `ACCCTCTG` is reported as -0.13.
With `AAACGGCC` the E-score was -0.173.
`CCGTGGGC` has an E-score of -0.273.
`AATCTTAT` gave an E-score of 0.277.
With `CGTCTCTC` the E-score was -0.0883.

Sample 5 — technique: protein-binding microarray; molecule type: double-stranded DNA, one strand shown; medium: in vitro; tested at: 940 nM top; notes: 60-bp whole probe; with: salmon DNA 0.4 mg/ml; baseline: random background probes; reading: higher = stronger binding; shared flanks, not repeated: GCCTAGCAC … GTCTTGATTCGCTTGACGCTGCTG
Target: Interferon regulatory factor 5, full length, phosphomimetic (IRF5, Homo sapiens, UniProt Q13568-2, residues 1-514, S451D/S453D/S456D/S462D)
For `TTAGGTATAGGTCTCGGTTAGTGCTAG`, “fitted relative affinity” read 1.76 z-score.
Under “fitted relative affinity”, `TTAGATATCGGGTTCCGATTAGTGCTA` is recorded as 0.295 z-score.
`GCACATGAGCCAAGCCTGCCGTGCTAG`: “fitted relative affinity” -0.623 z-score.
`TTAGGTTTCGACTATAGGTTAGTGCTA`: “fitted relative affinity” 9.47 z-score.
Under “fitted relative affinity”, `TTAGGTCTCCTTCTCCTTTAGTGCTAG` is recorded as 0.39 z-score.
`TTAGGACTCCTTCTCCTTTAGTGCTAG`: “fitted relative affinity” 0.0169 z-score.
For `GACGGTTTCGGTTTCGGTACGTGCTAG`, “fitted relative affinity” read 16 z-score.
For `TCACTTTCACTTCTCCCACTGTGCTAG`, “fitted relative affinity” read 6.21 z-score.
`TTAGGTTTCCTTCTCATTTAGTGCTAG`: “fitted relative affinity” 2.1 z-score.
For `TTAGATCTCAGTATCTATTAGTGCTAG`, “fitted relative affinity” read 1.16 z-score.
`GACGATTTCAGTGTCGAGACGTGCTAG`: “fitted relative affinity” 0.318 z-score.
`TTGGGTTTCGACTATCGGTTAGTGCTA` — result for “fitted relative affinity”: 7.11 z-score.
`TCATTTCTGAATGCTCCCACTGTGCTA` — result for “fitted relative affinity”: 0.277 z-score.
`AATTTTGTCATCTATAATGGAGTGCTA`: “fitted relative affinity” -0.12 z-score.
`TTAGGTTTCCTTCCCCTTTAGTGCTAG` — result for “fitted relative affinity”: 1.66 z-score.
For `TTAGAACTGAGTTTCGATTTGTGCTAG`, “fitted relative affinity” read 6.87 z-score.
`TCAAATGACCTTCTCAGACTGTGCTAG`: “fitted relative affinity” -0.191 z-score.
`GAGGGACTGCTTATCCTGACGTGCTAG`: “fitted relative affinity” -0.533 z-score.
`GACGGTCTCCTTCCCCTGACGTGCTAG`: “fitted relative affinity” 0.466 z-score.
`GACGGTATCATTCTCCTGACGTGCTAG` — result for “fitted relative affinity”: 3.04 z-score.
Under “fitted relative affinity”, `CTAATTTCCATTTTCTAAATGTGCTAG` is recorded as 1.26 z-score.
`GACGGTATCGGGTATGGGGACGTGCTA`: “fitted relative affinity” 4.58 z-score.
Under “fitted relative affinity”, `GATGTTTTTCATTTTTTTTCGTGCTAG` is recorded as 1.56 z-score.
Under “fitted relative affinity”, `TTAGATATCGGGATTGGATTAGTGCTA` is recorded as -0.0753 z-score.
`TTAGGACAGCTTCTCCTTTAGTGCTAG`: “fitted relative affinity” -0.514 z-score.

Repeated from above (sample 4):
`TCTCAGAA` has an E-score of 0.117.
For `CAATACAA`, the E-score was 0.213.
`GCGAGTCA` has an E-score of -0.195.
For `GATATGCA`, the E-score was 0.21.
The E-score of `CAATCGAG` is reported as -0.267.
`AGGCGTAC` has an E-score of -0.0458.
The E-score of `ACCCTCTG` is reported as -0.13.
